Measured values collected from several papers.
Parts stem from different laboratories: compare values within a part only.

Sample 1 — method: protein binding microarray; molecule type: double-stranded DNA, one strand shown; matrix: in vitro; tested at: not given; relative to: not given; direction: higher = stronger binding; measurement: E-score
Target: Histone acetyltransferase KAT6A, winged helix 2, GST fusion (KAT6A, Homo sapiens, UniProt Q92794, residues 85-181)
Setting: 8-mer, flanks averaged, mean of 2 arrays, mostly near background
Target sequence (chain): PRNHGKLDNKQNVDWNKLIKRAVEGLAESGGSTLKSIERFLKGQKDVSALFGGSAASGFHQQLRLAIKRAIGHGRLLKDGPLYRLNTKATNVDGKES
ACCAGGTG: -0.0751
ATGGATGA: -0.149
TAGAAAGA: -0.154
AGAGCCCT: 0.0296
AGGGACGA: 0.0839
AGCAGAAG: -0.167
AGACAGAC: 0.0432

Sample 2 — method: universal PBM; molecule type: double-stranded DNA, one strand shown; matrix: in vitro; tested at: 600 nM; direction: higher = stronger binding; measurement: E-score
Target: Sal-like protein 4, full length isoform A (SALL4, Homo sapiens, UniProt Q9UJQ4, residues 1-1053)
Chain of UniProt Q9UJQ4 (whole entry, looked up): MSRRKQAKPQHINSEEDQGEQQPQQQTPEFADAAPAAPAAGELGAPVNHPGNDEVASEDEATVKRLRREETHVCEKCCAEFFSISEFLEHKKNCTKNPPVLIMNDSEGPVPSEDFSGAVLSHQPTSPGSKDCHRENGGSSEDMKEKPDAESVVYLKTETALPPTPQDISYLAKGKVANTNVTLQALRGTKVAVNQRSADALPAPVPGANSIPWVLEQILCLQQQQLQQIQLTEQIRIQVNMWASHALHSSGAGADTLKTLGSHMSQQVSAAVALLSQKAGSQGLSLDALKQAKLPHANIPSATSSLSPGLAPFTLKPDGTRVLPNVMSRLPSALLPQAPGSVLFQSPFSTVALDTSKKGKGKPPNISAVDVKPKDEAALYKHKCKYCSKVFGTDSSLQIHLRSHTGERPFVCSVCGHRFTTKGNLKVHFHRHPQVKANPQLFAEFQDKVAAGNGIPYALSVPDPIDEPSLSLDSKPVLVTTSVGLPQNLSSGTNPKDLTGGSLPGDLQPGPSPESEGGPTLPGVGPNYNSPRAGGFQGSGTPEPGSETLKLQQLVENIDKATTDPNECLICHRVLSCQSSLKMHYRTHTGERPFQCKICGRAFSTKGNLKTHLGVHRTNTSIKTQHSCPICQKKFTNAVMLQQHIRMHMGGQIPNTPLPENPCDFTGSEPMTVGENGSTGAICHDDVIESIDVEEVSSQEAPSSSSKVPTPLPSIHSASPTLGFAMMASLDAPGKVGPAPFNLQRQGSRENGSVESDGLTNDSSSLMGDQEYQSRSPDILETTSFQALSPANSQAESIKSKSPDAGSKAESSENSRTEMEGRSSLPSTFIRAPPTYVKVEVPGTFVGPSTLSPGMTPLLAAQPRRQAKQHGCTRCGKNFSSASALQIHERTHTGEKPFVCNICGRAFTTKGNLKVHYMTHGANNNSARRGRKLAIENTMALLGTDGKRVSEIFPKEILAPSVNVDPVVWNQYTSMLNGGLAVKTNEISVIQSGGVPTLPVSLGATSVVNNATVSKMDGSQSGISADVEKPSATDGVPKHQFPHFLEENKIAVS
Setting: 8-mer, flanks averaged, mean of replicates
AGCCAAAA: 0.113
CTTGGGAC: -0.215
AATAGCAT: 0.269
GCTACCGA: -0.0885
GACAAGTA: 0.031
AGTTCGCG: -0.175
ACCGGGGA: -0.383

Sample 3 — method: protein-binding microarray; molecule type: double-stranded DNA, one strand shown; matrix: in vitro; tested at: not given; direction: higher = stronger binding; measurement: E-score
Target: Transcriptional repressor CTCF (CTCF, Homo sapiens, UniProt P49711, residues 1-727, full length assumed)
Setting: k-mer, scored over probes, only values ≥0.25
Target sequence (chain): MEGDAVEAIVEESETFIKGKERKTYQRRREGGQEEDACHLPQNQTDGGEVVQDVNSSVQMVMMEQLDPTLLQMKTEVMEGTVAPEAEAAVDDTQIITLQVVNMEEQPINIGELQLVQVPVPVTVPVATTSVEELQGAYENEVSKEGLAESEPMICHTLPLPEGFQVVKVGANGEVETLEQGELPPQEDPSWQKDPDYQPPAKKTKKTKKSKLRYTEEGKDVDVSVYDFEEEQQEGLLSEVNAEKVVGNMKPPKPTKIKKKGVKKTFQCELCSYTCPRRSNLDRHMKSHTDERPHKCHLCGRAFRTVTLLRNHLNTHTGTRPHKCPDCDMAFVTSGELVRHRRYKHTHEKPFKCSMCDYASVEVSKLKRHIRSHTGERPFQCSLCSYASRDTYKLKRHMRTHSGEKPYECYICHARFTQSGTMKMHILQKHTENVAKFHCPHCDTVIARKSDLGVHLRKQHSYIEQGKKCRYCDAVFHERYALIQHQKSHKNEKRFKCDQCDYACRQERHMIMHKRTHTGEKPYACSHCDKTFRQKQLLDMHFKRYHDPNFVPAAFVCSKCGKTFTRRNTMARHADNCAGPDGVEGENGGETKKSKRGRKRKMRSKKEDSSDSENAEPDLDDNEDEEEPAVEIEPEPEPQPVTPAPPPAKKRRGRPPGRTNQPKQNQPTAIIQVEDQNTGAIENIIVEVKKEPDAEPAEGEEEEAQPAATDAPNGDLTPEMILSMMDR
CCCGCGCG: 0.257
TAATTGCA: 0.306
AAATTATC: 0.338
CGCCACAA: 0.257
ATAACTTC: 0.292
TAATGTGA: 0.296
ATTATTTG: 0.389
CGCCGCGC: 0.271

Other studies, line by line
PhoQ, residues 284 288 289 292 302 303 NLAAMI
fold induction (PhoP, residues 12 14 15 18 19 VQALL (Escherichia coli, UniProt P23836); Sort-seq, item: YFP reporter; E. coli; PhoQ-PhoP variant library, together with: 10 µM Mg2+; relative to: high Mg2+ state, higher = stronger signaling): 15.5
